Measured values of several laboratories.
Lines come from different studies, so protocols differ. ± marks the error that the study gave.
Chain of UniProt Q96ES7 (whole entry, looked up): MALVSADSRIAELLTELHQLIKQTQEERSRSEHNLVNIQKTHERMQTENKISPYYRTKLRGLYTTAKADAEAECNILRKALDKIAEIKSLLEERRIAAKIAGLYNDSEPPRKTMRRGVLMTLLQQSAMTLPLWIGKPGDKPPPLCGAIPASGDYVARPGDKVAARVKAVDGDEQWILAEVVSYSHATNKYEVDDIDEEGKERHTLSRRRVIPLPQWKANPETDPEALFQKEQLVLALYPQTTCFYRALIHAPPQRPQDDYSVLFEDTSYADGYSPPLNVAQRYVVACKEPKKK
Chain of UniProt P04756 (whole entry, looked up): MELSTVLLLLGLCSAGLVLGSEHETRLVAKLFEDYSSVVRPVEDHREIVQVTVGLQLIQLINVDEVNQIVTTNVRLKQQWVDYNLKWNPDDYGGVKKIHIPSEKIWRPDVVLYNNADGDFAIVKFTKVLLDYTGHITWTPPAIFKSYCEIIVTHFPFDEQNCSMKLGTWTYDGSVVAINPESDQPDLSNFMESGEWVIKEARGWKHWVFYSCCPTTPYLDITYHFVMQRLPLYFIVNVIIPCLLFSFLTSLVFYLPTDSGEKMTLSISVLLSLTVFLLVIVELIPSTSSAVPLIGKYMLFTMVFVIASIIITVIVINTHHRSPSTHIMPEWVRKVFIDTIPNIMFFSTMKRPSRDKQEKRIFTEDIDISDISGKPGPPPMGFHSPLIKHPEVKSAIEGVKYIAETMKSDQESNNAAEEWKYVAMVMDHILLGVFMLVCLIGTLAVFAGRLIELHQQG
Chain of UniProt P20782 (whole entry, looked up): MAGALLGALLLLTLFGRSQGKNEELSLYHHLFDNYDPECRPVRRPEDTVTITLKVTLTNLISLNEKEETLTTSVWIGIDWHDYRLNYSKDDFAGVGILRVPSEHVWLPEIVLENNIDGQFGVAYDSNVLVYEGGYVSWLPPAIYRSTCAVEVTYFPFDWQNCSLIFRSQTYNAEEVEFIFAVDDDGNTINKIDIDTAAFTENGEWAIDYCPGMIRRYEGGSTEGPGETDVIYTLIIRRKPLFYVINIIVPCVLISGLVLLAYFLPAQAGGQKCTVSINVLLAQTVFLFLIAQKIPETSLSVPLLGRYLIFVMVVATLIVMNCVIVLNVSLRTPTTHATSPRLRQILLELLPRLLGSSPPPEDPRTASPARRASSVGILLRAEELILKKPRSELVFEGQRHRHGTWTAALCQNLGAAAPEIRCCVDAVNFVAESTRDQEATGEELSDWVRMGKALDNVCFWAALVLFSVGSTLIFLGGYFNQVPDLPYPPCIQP
Chain of UniProt P02716 (whole entry, looked up): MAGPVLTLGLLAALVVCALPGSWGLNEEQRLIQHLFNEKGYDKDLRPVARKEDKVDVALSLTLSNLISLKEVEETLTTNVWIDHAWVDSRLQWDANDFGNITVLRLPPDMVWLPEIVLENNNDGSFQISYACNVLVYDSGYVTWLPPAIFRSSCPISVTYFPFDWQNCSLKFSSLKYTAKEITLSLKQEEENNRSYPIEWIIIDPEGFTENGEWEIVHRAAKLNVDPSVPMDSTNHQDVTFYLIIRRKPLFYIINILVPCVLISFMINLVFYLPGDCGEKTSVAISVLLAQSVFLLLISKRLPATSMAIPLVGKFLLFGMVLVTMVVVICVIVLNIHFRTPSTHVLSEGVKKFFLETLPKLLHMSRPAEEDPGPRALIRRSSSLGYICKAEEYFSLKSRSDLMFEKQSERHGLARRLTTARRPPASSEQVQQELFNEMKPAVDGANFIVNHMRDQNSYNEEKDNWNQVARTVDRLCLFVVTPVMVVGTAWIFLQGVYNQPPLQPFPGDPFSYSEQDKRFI
Chain of UniProt P10959 (whole entry, looked up): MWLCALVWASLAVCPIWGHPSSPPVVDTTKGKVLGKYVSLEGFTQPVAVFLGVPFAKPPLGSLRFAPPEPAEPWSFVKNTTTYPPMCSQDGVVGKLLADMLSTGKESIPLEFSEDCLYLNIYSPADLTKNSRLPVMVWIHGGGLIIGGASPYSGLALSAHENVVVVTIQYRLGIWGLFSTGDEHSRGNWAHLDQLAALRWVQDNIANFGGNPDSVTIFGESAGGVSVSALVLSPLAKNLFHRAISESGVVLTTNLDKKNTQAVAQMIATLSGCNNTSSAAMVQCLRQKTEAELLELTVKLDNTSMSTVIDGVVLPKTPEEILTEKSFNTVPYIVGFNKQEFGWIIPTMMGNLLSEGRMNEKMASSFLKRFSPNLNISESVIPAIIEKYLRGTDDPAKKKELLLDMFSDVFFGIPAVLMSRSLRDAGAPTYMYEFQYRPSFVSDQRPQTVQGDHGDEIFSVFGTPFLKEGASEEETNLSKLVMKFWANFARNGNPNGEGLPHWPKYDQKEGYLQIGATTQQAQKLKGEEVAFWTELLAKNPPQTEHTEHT
Chain of UniProt Q7Z2W7 (whole entry, looked up): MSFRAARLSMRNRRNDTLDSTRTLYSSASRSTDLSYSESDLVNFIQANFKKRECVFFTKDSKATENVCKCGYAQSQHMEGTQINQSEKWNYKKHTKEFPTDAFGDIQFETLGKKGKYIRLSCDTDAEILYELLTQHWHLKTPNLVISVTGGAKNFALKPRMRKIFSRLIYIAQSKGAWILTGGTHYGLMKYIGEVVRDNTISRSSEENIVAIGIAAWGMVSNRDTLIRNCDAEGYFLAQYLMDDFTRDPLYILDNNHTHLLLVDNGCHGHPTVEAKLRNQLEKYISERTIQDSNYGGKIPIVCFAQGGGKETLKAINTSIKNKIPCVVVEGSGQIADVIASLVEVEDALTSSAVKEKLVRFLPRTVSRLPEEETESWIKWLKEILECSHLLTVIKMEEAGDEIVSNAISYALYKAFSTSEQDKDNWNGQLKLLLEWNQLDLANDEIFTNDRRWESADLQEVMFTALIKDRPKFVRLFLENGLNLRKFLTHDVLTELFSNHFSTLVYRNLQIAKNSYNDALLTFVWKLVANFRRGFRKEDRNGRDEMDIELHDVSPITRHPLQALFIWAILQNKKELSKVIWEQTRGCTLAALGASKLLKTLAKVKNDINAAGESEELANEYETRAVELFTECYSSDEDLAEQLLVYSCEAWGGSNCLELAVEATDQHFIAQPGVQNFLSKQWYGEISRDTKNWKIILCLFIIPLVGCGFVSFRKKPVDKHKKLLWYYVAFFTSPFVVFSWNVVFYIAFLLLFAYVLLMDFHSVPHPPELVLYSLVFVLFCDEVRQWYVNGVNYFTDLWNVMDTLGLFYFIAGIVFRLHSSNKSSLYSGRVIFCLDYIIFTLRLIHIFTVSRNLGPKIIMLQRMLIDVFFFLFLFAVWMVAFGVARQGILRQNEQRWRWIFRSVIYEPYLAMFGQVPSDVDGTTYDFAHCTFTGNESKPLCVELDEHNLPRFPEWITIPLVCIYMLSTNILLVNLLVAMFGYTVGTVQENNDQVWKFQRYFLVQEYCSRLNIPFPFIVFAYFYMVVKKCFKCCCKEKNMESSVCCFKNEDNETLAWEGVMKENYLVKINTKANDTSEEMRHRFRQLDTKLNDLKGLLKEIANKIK
Chain of UniProt P77488 (whole entry, unmodified, looked up): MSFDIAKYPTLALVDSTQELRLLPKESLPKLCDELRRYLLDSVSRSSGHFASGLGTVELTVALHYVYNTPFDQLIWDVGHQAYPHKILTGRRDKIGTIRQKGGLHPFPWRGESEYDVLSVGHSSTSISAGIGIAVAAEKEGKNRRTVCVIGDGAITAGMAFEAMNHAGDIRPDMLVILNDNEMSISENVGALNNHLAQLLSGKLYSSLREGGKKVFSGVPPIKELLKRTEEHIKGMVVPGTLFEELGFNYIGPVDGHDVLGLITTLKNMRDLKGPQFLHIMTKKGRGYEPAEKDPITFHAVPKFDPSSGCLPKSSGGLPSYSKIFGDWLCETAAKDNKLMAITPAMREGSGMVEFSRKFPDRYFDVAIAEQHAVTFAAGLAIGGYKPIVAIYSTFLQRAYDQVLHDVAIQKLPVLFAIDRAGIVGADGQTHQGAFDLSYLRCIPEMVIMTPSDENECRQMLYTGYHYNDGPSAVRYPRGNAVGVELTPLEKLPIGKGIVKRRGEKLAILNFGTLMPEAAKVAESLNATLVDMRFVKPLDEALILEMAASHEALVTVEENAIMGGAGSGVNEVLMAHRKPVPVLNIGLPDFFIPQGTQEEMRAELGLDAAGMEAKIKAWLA
Chain of UniProt P56373 (whole entry, looked up): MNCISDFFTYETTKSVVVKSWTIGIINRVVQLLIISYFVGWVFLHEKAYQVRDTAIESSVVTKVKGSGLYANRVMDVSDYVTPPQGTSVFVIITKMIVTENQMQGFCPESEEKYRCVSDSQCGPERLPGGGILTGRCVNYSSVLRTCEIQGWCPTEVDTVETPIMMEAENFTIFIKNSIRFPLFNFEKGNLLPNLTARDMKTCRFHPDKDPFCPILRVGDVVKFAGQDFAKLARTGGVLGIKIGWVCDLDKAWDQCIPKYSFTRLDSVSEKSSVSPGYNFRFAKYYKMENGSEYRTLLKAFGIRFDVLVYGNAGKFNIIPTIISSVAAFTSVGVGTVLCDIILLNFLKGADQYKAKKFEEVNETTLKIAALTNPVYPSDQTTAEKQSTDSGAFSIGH
Chain of UniProt O75388 (whole entry, looked up): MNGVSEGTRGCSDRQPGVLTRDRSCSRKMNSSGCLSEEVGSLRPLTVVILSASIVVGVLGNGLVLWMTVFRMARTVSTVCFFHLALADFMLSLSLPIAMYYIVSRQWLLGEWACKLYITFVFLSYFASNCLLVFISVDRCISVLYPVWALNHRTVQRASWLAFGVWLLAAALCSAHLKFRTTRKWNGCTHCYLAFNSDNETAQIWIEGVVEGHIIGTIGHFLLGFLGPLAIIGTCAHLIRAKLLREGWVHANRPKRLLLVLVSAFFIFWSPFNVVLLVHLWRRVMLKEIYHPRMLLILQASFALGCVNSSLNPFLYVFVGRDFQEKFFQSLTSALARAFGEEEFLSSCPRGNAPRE

Structure (SMILES) | target or system | assay | system | setting | how to read | endpoint | value
Nc1ncnc2c1ncn2[C@@H]1O[C@H](COP(=O)(O)CP(=O)(O)OP(=O)(O)O)[C@@H](O)[C@H]1O | P2X purinoceptor 3 (P2RX3, Homo sapiens, UniProt P56373) | ion current, agonist, patch clamp | HEK293 | 1 µM | – | current ratio Mg2+-bound over free | 0.63 ± 0.065
CC[C@H](C)[C@H](NC(=O)[C@H](Cc1ccccc1)NC(=O)[C@H](CCC(=O)O)NC(=O)[C@H](CCCNC(=N)N)NC(=O)[C@H](C)NC(=O)[C@H](C)NC(=O)[C@H](CCC(N)=O)NC(=O)[C@H](CCC(=O)O)NC(=O)[C@H](CCC(=O)O)NC(=O)[C@H](CC(C)C)NC(=O)[C@H](Cc1ccc(O)cc1)NC(=O)[C@H](CO)NC(=O)[C@H](CO)NC(=O)[C@@H](NC(=O)[C@H](CC(=O)O)NC(=O)[C@H](CO)NC(=O)[C@@H](NC(=O)[C@H](Cc1ccccc1)NC(=O)[C@@H](NC(=O)CNC(=O)[C@H](CCC(=O)O)NC(=O)[C@H](C)NC(=O)CCc1c[nH]cn1)[C@@H](C)O)[C@@H](C)O)C(C)C)C(=O)N[C@@H](C)C(=O)N[C@@H](Cc1c[nH]c2ccccc12)C(=O)N[C@@H](CC(C)C)C(=O)N[C@H](C(=O)N[C@@H](CCCNC(=N)N)C(=O)NCC(=O)N[C@@H](CCCNC(=N)N)C(=O)N[C@@H](CCCCNC(=O)COCCOCCNC(=O)COCCOCCNC(=O)CC[C@H](NC(=O)CCCCCCCCCCCCCCCCC(=O)O)C(=O)O)C(=O)NCC(=O)NCC(=O)N[C@@H](CO)C(=O)N[C@@H](CCCCNc1c(NCCCCCN(O)C(=O)CCC(=O)NCCCCCN(O)C(=O)CCC(=O)NCCCCCN(O)C(C)=O)c(=O)c1=O)C(=O)O)C(C)C [zirconium-89 labelled] | – | – | rat, liver | iv, 3 nmol/kg, 72 h, ex vivo | – | tissue uptake | 0.91 %ID/g
COc1cc(N)c(Cl)cc1C(=O)NC1CN2CCC1CC2 (stereo not drawn) | GPR32 (Homo sapiens, UniProt O75388) | β-arrestin recruitment, TANGO luminescence | – | concentration not given | reference: basal luminescence | log2 fold change | 0.101
O=C(Nc1cnccc1Cl)N1CCN(Cc2ccc3c(c2)OC(F)(F)O3)CC1 | OPRK1 (Homo sapiens, UniProt P41145) | radioligand binding, inhibitor | – | 50 µM, human, with: [3H]diprenorphine | – | inhibition | 19%
COc1ccc(N2C(=O)N(c3c(C)cccc3Cl)Cc3cnc(Nc4ccc(C5CCN(C)CC5)cc4OC)nc32)nc1 | STK26 (Homo sapiens, UniProt Q9P289) | kinase activity, inhibitor | – | 0.5 µM, MST4 | – | inhibition | 14%
CO[C@H]1C[C@@H]2CC[C@@H](C)[C@@](O)(O2)C(=O)C(=O)N2CCCC[C@H]2C(=O)O[C@H]([C@H](C)C[C@@H]2CC[C@@H](OC(=O)NCCOCCOCCOCCOCCOCCOCCOCCOCCC(=O)N3CCc4cc(Cn5nc(-c6ccc7oc(N)nc7c6)c6c(N)ncnc65)ccc4C3)[C@H](OC)C2)C[C@@H](O)[C@H](C)/C=C(\C)[C@@H](O)[C@@H](OC)C(=O)[C@H](C)C[C@H](C)/C=C/C=C/C=C/1C | – | phase 1 dose escalation, measured: nausea | advanced solid tumour patients | intravenous, 16 mg weekly, any grade | – | TRAE incidence | 75%
C[C@H]1CN(c2n[nH]c3nc(N[C@H]4CC[C@H](NS(=O)(=O)CCC(F)(F)F)CC4)ncc23)CCO1 | CTP synthase 1 (Homo sapiens, UniProt P17812) | Kinobeads competition, measured: CTPS | – | 20 µM, unit not given | reference: vehicle | remaining binding | 1.22
O=C(O)C[C@H](NC(=O)[C@H](CC(=O)O)NC(=O)[C@H](CC(=O)O)NC(=O)[C@H](CC(=O)O)NC(=O)[C@H](CC(=O)O)NC(=O)[C@H](CC(=O)O)NC(=O)[C@H](CC(=O)O)NC(=O)[C@H](CC(=O)O)NC(=O)[C@H](CC(=O)O)NC(=O)[C@H](CC(=O)O)NC(=O)[C@H](CC(=O)O)NC(=O)[C@H](CCCCNC(=O)c1ccc(C(=O)NCCOCCOB2BBBBBB3BBBB3B2)cc1)NC(=O)CN1CCN(CC(=O)O)CCN(CC(=O)O)CCN(CC(=O)O)CC1)C(=O)O [gallium-67 labelled] | – | – | ddY male mice, large intestine | intravenous, 37 kBq, 3 h | – | tissue uptake | 0.34 %ID/g
CC(=O)NC[C@H]1[C@H](O)[C@H](O)[C@@H]2[C@H](O)C[C@@H](CO)N21 | human placental β-N-acetylglucosaminidase | – | – | 0.01288 µM, run 2, with: p-nitrophenyl GlcNAc | – | inhibition | 64.5%
C[C@@H](O)[C@@H](CO)NC(=O)[C@@H](CCCNC(=N)N)NC(=O)[C@@H]1CCCN1C(=O)[C@@H]1CSSC[C@H](NC(=O)[C@H](Cc2ccccc2)NC(=O)CN2CCN(CC(=O)O)CCN(CC(=O)O)CCN(CC(=O)O)CC2)C(=O)N[C@@H](Cc2ccc(O)cc2)C(=O)N[C@@H](Cc2ccccc2)C(=O)N[C@@H](CCC(N)=O)C(=O)N[C@@H](CC(N)=O)C(=O)N1 [gallium-68 labelled] | – | – | healthy Wistar rat, heart | intravenous, 8 MBq, 30 min, individual animals | – | tissue uptake | 0.28 %ID/g
CN(C(=O)n1cnc(-c2ccc[n+]([O-])c2)c1)C1CCCCC1 | Carboxylesterase 1C (Ces1c, Rattus norvegicus, UniProt P10959) | enzyme activity, ABPP | rat, brain | oral, 100 mg/kg/day, 1 days | reference: vehicle | fold change | -33.7
CCCCOP(=O)(O)C(C)=O | dxs (Escherichia coli, UniProt P77488, R99A) | – | – | concentration not given, variant enzyme | reference: wild type | Ki fold change | 10 fold
O=C(CCl)c1cscn1 | UCHL1 (Homo sapiens, UniProt P09936) | covalent, intact protein LC-MS | – | 12.5 µM | – | labelling | 14%
O=C(Nc1cccnn1)N1CCC(=Cc2cccc(Oc3ccc(C(F)(F)F)cn3)c2)CC1 | CYSLTR2 (Homo sapiens, UniProt Q9NS75) | radioligand binding | – | 50 µM, with: [3H]LTD4 | – | inhibition of binding | 26%
COc1cc2c(Oc3ccc4[nH]c(C)cc4c3F)ccnc2cc1OCC1(N)CC1 | – | – | paediatric recurrent refractory sarcoma | 10 mg | – | grade 1 or 2 Tinnitus | 0%
COc1cc(Nc2ncc(F)c(Nc3ccc4c(n3)NC(=O)C(C)(C)O4)n2)cc(OC)c1OC | MAP2K7 (Homo sapiens, UniProt O14733) | binding, KINOMEscan | – | 10 µM, MKK7 kinase | – | inhibition | 8%
C[C@H](N)C(=O)N[C@@H](CCCNC(=N)N)C(=O)N[C@H](C(=O)N[C@@H](CCCCC(C)(C)C)C(=O)N[C@@H](CCC(N)=O)C(=O)N[C@H](C(=O)N[C@@H](C)C(N)=O)[C@@H](C)O)[C@@H](C)O | SGF29, TTD (Homo sapiens, UniProt Q96ES7) | binding, ITC | – | – | reference: Kme3 peptide KD over compound KD | preference over Kme3 peptide | 1.3 fold
N=C(N)NCCC[C@@H]1NC(=O)[C@H](CCCCNC(=O)c2ccc(CNC34CNCCNCC(N)(CNCCNC3)CNCCNC4)cc2)NC(=O)[C@@H](Cc2ccc(O)cc2)NC(=O)[C@H](CC(=O)O)NC(=O)CNC1=O [copper-64 labelled] | – | ex vivo biodistribution | male athymic nude mouse, PC-3 tumour, liver | 7.4 MBq, 48 h | – | tissue uptake | 1.7 ± 0.26 %ID/g
CC(C)C[C@@H]1NC(=O)[C@H](CC(C)C)NC(=O)[C@H](Cc2c[nH]c3ccccc23)NC(=O)[C@H](CO)NC(=O)[C@H](Cc2c[nH]c3ccccc23)NC(=O)[C@@H]2CCCN2C(=O)[C@H](CC(C)C)NC(=O)[C@H](Cc2c[nH]cn2)NC(=O)[C@@H]2CCCN2C(=O)[C@H](CC(N)=O)NC(=O)[C@H](C)NC(=O)[C@H](Cc2ccc(O)cc2)NC(=O)[C@H](CS)NC(=O)[C@H](CCCCNC(=O)CN2CCN(CC(=O)O)CCN(CC(=O)O)CCN(CC(=O)O)CC2)NC1=O [lutetium-177 labelled] | – | – | Balb/c mouse, female, 4T1 tumour, intestine | intravenous, 3.7 MBq, 24 h | – | tissue uptake | 1.71 %ID
CC[N+]1(C)CCN(c2cccc(Cl)c2)CC1.[I-] | Nicotinic acetylcholine receptor alpha1/beta1/epsilon/delta (Mus musculus, UniProt P02716+P04756+P09690+P20782) | ion current, inhibitor, two-electrode voltage clamp | Xenopus oocytes | 30 µM, after co-application, unit not given, with: ACh 30 µM | reference: ACh alone | ACh response | 0.605 ± 0.127
CN(CC(=O)O)C(=N)NP(=O)(O)O | CKMT1A (Homo sapiens, UniProt P12532, E265Q) | substrate, Kinase-Glo luminescence | – | pH 7.0, reverse reaction, E227Q mutant, with: second substrate in excess | – | Km | 190 ± 10 µM
COc1ccc2c(c[n+](C)c3c4cc5c(cc4ccc23)OCO5)c1OC | TRPM8 (Homo sapiens, UniProt Q7Z2W7) | antagonist | HEK293 | 5 µM | reference: control | remaining activity | 75.9 ± 2.96%
CCOC(=O)CC(SP(=O)(OC)OC)C(=O)OCC (stereo not drawn) | uncharacterized protein (Anopheles coluzzii, UniProt A0A6E8VQK1) | enzyme activity, inhibitor | Sf9 cell homogenate | 4.587 µM, 0.1667 h, with: α-naphthyl acetate substrate | reference: no inhibitor | remaining activity | 3.68%
CSCC[C@H](NC(=O)[C@@H](N)Cc1ccc(O)cc1)C(=O)N[C@@H](Cc1ccccc1)C(=O)N[C@@H](CO)C(=O)N1CCC[C@H]1C(=O)N[C@H](C(=O)N[C@@H](Cc1c[nH]cn1)C(=O)N[C@@H](CCC(N)=O)C(=O)N[C@@H](Cc1ccccc1)C(=O)O)[C@@H](C)O | HLA class I histocompatibility antigen, A alpha chain, allele A*24:02 (Homo sapiens, UniProt P04439) | binding | – | – | – | IC50 | 1210 nM
